# Published values collected from several papers.
# Each line is one published result; not all experiments were run side by side. ± marks the error that the study gave.
# Sialidase-2: Sialidase-2 (Homo sapiens, UniProt Q9Y3R4)
# Chain of UniProt Q9Y3R4 (whole entry, looked up): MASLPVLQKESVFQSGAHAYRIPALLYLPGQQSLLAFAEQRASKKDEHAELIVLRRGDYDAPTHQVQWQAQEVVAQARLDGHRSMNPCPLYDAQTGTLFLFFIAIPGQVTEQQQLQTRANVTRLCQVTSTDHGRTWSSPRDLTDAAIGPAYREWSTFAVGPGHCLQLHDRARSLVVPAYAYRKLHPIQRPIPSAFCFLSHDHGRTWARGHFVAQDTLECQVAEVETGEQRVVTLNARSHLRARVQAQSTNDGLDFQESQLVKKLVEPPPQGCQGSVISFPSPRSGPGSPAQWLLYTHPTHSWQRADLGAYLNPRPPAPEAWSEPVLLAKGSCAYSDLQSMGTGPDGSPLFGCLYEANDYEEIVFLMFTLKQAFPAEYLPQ
# Chain of UniProt C9K1X5 (whole entry, looked up): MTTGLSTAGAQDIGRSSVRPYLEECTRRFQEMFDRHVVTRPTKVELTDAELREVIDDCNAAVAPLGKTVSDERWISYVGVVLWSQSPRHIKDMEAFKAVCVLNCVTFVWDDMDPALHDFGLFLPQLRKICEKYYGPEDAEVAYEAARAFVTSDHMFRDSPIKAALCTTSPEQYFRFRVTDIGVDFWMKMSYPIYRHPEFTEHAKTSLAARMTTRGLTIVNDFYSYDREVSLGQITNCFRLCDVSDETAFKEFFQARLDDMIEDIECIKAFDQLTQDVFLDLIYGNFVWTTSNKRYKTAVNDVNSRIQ
# Chain of UniProt Q16774 (whole entry, unmodified, looked up): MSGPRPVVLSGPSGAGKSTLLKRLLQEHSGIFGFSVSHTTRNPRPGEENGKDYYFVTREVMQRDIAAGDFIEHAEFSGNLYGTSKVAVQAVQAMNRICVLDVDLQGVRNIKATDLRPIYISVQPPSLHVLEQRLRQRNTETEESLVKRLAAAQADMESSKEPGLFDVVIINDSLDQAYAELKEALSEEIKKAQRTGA
SMILES,target or system,assay,test system,conditions,how to read,measurement,value
Nc1nc2c(ncn2[C@@H]2O[C@H](COP(=O)(O)O)[C@@H](O)[C@H]2O)c(=O)[nH]1,"GUK1 (Homo sapiens, UniProt Q16774, Y53A)","substrate, NADH-coupled",,,,Km,1050 µM
Cn1cc(-c2ccc(-c3cncc(Cl)c3N3CCC4(CCNC4=O)CC3)cc2)cn1,COLO 205,"gene expression, microarray, item: NAIP mRNA",,"concentration not given, 6 h",relative to: untreated cells,log2 fold change,1.51
C[C@@H](O)[C@H]1C(=O)N2C(C(=O)O)=C(SCCN=CN)C[C@H]12,beta-lactamase RAD-1 (Riemerella anatipestifer),"substrate, continuous spectrophotometric hydrolysis",,30 °C,,Km,19 ± 1.8 µM
CC(C)=CCC/C(C)=C/CC/C(C)=C/CC/C(C)=C/COP(=O)(O)OP(=O)(O)O,"CotB2 (Streptomyces melanosporofaciens, UniProt C9K1X5)","substrate, pyrophosphate release",,with: MgCl2 2.5 mM,,Km,12.3 µM
N#CCC(=O)Nc1ccc(C2CCCCC2)cc1,,hepatocyte stability,cryopreserved mouse hepatocytes,1 µM,,hepatic clearance,81 mL/min/kg
O=C(CO)NC1C(O)CC(OC2C(O)C(CO)OC(Oc3ccc([N+](=O)[O-])cc3)C2O)(C(=O)O)OC1C(O)C(O)CO (stereo not shown),Sialidase-2,substrate,,"10 min, pH 5.0, 37 °C",,Km,1000 ± 100 µM
C[C@@H](O)[C@H]1C(=O)N2C(C(=O)O)=C(S[C@@H]3CN[C@H](C(=O)Nc4cccc(C(=O)O)c4)C3)[C@H](C)[C@H]12,beta-lactamase RAD-1 (Riemerella anatipestifer),"substrate, continuous spectrophotometric hydrolysis",,30 °C,,Km,20 ± 1.9 µM
O=C(CO)NC1C(O)CC(OCC2OC(Oc3ccc([N+](=O)[O-])cc3)C(O)C(O)C2O)(C(=O)O)OC1C(O)C(O)CO (stereo not shown),Sialidase-2,substrate,,"10 min, pH 5.0, 37 °C",,Km,2200 ± 100 µM
CCCCCCCCCCCCCCCC(=O)SCCNC(=O)CCNC(=O)[C@H](O)C(C)(C)COP(=O)(O)OP(=O)(O)OC[C@H]1O[C@@H](n2cnc3c(N)ncnc32)[C@H](O)[C@@H]1OP(=O)(O)O,glycerol-3-phosphate acyltransferase,substrate,"3T3-L1 preadipocytes, total membranes","pH 7.5, room temperature, with: [3H]glycerol-3-phosphate",,Km,205 ± 43.2 µM
N[C@H]1C(O)O[C@H](COP(=O)(O)O)[C@@H](O)[C@@H]1O (stereo partly shown),GNA1 (Naegleria fowleri),"substrate, DTNB",,with: acetyl-CoA,,Km,1670 µM
C[C@H]1[C@H](NC(=O)/C(=N\OC(C)(C)C(=O)O)c2csc(N)n2)C(=O)N1S(=O)(=O)O,beta-lactamase RAD-1 (Riemerella anatipestifer),"substrate, continuous spectrophotometric hydrolysis",,30 °C,,Km,2560 ± 234 µM
O=C(c1ccc(C2CCCCC2)cc1)N1CC(O)C1,,hepatocyte stability,cryopreserved rat hepatocytes,1 µM,,hepatic clearance,48 mL/min/kg
Nc1c(N=Nc2ccc(S(=O)(=O)CCOS(=O)(=O)O)cc2)c(S(=O)(=O)O)cc2cc(S(=O)(=O)O)c(N=Nc3ccc(S(=O)(=O)CCOS(=O)(=O)O)cc3)c(O)c12,alternative ancestral dye-decolorizing peroxidase,"peroxidase activity, substrate, steady-state kinetics",,"25 °C, pH 3 ABTS, 4 others",,Km,9 µM
CC(=O)N[C@H]1[C@H]([C@H](O)[C@H](O)CO)O[C@@](OC[C@H]2O[C@@H](Oc3ccc([N+](=O)[O-])cc3)[C@H](O)[C@@H](O)[C@H]2O)(C(=O)O)C[C@@H]1O,Sialidase-2,substrate,,"10 min, pH 5.0, 37 °C",,Km,2100 ± 200 µM
Nc1ccc2c(O)c(N=Nc3ccc(N=Nc4ccc(N=Nc5cc(S(=O)(=O)O)c6cccc(S(=O)(=O)O)c6c5)c5ccccc45)c4ccc(S(=O)(=O)O)cc34)c(S(=O)(=O)O)cc2c1,alternative ancestral dye-decolorizing peroxidase,"peroxidase activity, substrate, steady-state kinetics",,"25 °C, pH 3 ABTS, 4 others",,Km,23 µM
CC(C)C[C@H](NC(=O)C[C@H](O)[C@H](CC(C)C)NC(=O)[C@H](Cc1c[nH]cn1)NC(=O)CNC(=O)[C@@H](NC(=O)[C@H](C)NC(=O)[C@H](Cc1c[nH]c2ccccc12)NC(=O)[C@H](CCC(N)=O)NC(=O)[C@@H](Cc1ccccc1)NC(=O)COCCOCCNC(=O)CCC(C(=O)O)N1CCN(CC(=O)O)CCN(CC(=O)O)CCN(CC(=O)O)CC1)C(C)C)C(N)=O (stereo partly shown) [lutetium-177 labelled],,,"BALB/c nu/nu mice, liver","intravenous, 250 pmol, 1 h, with: PA 300 µg",,tissue uptake,0.39 ± 0.04 %ID/g
